Measured values from different studies.
Numbered parts are unrelated; each lists some results of a single study. Values joined by “and” are separate records of one study, mostly repeats; a detail may differ.
Sequence of UniProt Q05655 (whole entry, looked up): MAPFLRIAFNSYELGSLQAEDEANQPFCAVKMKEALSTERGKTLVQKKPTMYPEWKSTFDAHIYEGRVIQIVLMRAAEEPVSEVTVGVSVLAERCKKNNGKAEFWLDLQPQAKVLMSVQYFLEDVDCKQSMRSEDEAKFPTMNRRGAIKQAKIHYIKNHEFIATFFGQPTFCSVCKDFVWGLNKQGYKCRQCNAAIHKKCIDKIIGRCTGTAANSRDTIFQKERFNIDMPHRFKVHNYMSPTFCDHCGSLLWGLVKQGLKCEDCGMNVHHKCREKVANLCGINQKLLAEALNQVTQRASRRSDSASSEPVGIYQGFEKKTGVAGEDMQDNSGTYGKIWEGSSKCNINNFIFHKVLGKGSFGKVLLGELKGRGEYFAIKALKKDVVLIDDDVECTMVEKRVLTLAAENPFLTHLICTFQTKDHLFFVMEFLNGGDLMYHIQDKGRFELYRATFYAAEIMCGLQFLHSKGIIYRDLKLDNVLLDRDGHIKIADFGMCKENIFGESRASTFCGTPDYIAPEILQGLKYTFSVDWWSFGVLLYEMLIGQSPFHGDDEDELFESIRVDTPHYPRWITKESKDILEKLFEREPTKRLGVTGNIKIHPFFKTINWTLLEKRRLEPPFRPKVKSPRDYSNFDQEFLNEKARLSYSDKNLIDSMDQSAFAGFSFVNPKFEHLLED
Sequence of UniProt O14578 (whole entry, looked up): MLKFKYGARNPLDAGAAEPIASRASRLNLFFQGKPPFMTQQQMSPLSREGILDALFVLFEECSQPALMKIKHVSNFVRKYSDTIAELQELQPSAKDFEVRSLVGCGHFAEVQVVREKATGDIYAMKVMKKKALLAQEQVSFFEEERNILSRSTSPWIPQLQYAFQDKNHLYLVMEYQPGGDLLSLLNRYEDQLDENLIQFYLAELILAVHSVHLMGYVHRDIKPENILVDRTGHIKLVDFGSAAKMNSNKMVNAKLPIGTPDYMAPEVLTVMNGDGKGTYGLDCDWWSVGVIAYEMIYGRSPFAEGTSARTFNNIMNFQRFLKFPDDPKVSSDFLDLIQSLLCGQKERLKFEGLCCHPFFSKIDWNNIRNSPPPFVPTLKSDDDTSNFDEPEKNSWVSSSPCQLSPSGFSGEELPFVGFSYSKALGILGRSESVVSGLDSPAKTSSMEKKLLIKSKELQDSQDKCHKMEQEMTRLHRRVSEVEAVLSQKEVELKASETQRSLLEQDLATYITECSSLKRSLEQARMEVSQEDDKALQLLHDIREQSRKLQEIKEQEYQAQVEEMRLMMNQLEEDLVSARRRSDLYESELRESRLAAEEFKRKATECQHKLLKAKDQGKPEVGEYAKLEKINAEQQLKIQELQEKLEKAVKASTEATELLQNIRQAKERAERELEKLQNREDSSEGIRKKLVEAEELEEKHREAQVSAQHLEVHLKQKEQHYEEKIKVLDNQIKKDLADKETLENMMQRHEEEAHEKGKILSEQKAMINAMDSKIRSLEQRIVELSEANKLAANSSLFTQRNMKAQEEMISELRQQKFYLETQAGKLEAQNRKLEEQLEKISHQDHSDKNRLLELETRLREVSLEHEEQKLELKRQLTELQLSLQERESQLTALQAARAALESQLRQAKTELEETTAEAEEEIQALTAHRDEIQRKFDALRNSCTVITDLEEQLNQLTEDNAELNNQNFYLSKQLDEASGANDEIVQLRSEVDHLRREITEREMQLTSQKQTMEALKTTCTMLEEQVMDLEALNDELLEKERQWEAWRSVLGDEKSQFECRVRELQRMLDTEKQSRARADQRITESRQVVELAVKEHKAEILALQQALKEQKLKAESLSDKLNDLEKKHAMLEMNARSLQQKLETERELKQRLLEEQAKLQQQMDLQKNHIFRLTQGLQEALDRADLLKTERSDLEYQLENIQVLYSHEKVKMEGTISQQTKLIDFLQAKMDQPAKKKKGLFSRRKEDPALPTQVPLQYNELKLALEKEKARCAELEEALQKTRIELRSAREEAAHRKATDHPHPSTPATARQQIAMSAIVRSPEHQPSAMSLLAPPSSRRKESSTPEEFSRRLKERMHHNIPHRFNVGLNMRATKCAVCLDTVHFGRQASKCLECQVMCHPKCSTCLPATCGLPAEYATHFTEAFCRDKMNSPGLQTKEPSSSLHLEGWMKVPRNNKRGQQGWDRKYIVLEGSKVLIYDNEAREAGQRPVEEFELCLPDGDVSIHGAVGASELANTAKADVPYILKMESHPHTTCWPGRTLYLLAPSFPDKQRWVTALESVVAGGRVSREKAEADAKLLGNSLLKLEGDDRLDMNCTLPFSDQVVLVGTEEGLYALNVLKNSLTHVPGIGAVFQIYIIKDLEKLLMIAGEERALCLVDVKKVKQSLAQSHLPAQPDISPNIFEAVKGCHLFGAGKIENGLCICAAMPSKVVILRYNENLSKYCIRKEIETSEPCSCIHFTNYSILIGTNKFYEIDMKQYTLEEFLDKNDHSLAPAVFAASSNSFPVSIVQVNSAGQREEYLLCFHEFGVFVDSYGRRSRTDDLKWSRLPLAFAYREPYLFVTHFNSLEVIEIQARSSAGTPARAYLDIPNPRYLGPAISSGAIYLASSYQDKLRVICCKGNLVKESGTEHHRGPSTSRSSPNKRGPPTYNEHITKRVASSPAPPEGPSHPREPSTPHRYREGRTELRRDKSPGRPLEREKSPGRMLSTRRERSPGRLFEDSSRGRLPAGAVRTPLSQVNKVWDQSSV
Sequence of UniProt Q13464 (whole entry, looked up): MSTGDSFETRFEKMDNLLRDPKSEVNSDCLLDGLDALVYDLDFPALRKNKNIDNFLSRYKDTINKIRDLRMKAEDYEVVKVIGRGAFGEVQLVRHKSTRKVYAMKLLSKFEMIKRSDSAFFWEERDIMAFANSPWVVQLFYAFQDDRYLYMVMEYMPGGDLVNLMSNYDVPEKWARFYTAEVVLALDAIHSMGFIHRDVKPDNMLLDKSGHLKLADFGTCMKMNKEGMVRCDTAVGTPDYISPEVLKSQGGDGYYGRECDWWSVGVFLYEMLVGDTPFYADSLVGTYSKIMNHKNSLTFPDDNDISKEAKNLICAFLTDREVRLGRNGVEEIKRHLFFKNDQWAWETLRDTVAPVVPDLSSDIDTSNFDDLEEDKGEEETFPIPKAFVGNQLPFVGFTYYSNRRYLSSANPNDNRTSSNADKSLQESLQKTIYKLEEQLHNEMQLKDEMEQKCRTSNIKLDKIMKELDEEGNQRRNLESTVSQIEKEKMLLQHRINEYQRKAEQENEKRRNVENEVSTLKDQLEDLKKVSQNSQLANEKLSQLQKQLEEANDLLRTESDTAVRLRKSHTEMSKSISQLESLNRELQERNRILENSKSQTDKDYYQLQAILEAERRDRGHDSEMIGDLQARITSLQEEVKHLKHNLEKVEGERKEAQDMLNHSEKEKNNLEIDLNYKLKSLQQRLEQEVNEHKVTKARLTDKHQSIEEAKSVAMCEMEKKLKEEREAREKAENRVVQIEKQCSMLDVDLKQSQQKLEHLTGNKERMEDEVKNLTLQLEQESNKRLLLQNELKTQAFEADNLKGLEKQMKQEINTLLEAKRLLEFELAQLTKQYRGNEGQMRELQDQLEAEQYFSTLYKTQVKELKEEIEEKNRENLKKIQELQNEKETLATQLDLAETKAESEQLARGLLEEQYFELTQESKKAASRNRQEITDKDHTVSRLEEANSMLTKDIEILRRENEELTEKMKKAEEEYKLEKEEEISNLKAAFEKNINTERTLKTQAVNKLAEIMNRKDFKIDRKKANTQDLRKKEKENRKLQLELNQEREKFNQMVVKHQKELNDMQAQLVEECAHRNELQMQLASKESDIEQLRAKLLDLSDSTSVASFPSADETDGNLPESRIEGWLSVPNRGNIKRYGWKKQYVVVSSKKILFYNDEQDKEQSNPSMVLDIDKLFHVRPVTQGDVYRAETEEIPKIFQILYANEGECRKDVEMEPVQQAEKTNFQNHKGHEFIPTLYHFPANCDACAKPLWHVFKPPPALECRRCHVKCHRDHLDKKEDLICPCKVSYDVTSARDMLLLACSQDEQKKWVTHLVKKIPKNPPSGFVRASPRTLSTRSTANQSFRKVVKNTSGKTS
Sequence of UniProt O00329 (whole entry, looked up): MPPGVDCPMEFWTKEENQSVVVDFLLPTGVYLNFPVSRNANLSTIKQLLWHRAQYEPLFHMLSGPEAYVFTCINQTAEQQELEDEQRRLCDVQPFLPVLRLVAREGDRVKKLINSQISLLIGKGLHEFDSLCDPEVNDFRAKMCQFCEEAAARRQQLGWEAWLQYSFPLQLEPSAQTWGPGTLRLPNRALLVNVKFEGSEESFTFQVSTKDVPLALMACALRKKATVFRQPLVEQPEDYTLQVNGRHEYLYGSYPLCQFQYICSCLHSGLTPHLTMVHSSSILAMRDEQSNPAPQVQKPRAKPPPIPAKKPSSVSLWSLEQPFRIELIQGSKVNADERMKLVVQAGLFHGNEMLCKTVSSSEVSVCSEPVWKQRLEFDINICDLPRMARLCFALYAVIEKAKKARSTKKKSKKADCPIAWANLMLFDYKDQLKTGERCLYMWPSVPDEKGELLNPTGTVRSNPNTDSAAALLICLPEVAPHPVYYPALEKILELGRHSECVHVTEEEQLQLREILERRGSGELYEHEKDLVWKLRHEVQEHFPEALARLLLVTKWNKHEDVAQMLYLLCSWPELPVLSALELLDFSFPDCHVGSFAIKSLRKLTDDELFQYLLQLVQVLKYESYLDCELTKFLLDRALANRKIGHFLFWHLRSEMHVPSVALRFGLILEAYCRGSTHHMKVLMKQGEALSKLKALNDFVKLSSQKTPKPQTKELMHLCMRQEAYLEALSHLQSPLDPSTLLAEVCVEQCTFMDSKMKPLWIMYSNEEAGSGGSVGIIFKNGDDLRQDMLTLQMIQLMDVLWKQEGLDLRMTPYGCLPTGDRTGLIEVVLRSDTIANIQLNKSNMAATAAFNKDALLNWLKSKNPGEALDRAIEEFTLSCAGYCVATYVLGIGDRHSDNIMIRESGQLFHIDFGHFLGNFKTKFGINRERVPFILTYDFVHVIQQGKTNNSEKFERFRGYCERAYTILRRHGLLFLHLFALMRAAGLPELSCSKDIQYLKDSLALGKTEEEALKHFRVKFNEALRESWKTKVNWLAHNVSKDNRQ

Series 1 — host: human; matrix: microsomes or S9; concentration: 2 µM; time: 0.5 h
For OCC1(COc2ccccc2-c2nncn2-c2ccccc2)COC1, the remaining compound was greater than 100%.
With Cc1noc(C)c1Cc1c(C(=O)N2CCC(C3CCNC3)CC2)noc1C (centres unmarked) the remaining compound was 61.9%.
For CCN(CC)S(=O)(=O)c1ccc2nc(NCc3cc(F)cc(F)c3)cnc2c1, the remaining compound was 21.4%.

Series 2 — effect on: cell-free assay; technique: competition with immobilised ligand; concentration: 1 µM
SMILES: COc1ccc2cc(OCC3(C(=O)O)CN(C(=O)c4ccc(F)cc4)C3)ccc2c1
The remaining binding was 100% (CIT (Homo sapiens, UniProt O14578)).
It gave 100% for remaining binding (ROCK1 (Homo sapiens, UniProt Q13464)).
PRKCD (Homo sapiens, UniProt Q05655) — remaining binding: 100%.
For PIK3CD (Homo sapiens, UniProt O00329): remaining binding read 100%.
For HIPK2 (Homo sapiens, UniProt Q9H2X6): remaining binding read 78%.

Single results of other studies
For C[C@@H]1CN(c2ccc(-c3cc(C(=O)NCCOCCOCCOCCOCCOCCOCCNC(=O)/C=C/c4[nH]cc(C(=O)N[C@@H](CC(N)=O)c5ccc(F)c(Cl)c5)c4-c4ccc(Cl)cc4F)ccc3F)cc2NC(=O)c2ccc(F)cc2C(F)(F)F)C[C@H](C)N1C, the viability was 92% and 110% and 85.2% (MV4-11 expressing HiBiT-WDR5; ATPlite; RPMI with 10% FBS; 2 nM, 24 h).
c1ccc2c(-c3nn4c(-c5ccncc5)nnc4s3)c[nH]c2c1 has a remaining activity of 1.35 and 1.63 and 1.6 and 1.51 and 1.61 and 1.56 and 1.45 (α-galactosidase (human, wild type); healthy dermal fibroblasts; 0.5 µM, unit not given; reference: DMSO).
The logD of CCC[C@H]1NC(=O)CSC[C@@H](C(=O)OCC)N(C)C(=O)[C@H](CC(C)C)NC(=O)[C@@H](C)N(C)C(=O)[C@@H](CC(C)C)NC(=O)[C@H](C)N(C)C(=O)[C@H]2CCCN2C(=O)[C@H](CC(C)C)NC(=O)CN(CCC)C1=O is reported as 0.86 (hydrocarbon/water).

Repeated from above (series 2):
The remaining binding was 100% (CIT (Homo sapiens, UniProt O14578)).
It gave 100% for remaining binding (ROCK1 (Homo sapiens, UniProt Q13464)).
